Published values collected from several papers.
± marks the error that the study gave.
Target: D(1A) dopamine receptor (DRD1, Homo sapiens, UniProt P21728)
Sequence of UniProt P21728 (whole entry, looked up): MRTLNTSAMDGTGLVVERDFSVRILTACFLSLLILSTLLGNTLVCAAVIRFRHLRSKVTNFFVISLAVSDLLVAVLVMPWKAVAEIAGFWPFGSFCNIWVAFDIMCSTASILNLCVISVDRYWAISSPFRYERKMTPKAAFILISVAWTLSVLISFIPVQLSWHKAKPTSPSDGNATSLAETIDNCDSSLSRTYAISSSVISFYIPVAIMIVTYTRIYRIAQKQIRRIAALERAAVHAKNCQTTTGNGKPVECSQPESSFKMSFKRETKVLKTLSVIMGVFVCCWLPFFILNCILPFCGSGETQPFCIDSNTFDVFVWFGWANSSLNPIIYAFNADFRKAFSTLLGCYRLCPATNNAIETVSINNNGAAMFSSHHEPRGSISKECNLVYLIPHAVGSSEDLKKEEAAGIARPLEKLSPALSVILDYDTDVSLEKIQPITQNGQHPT

Oc1cc2c(cc1OCC(F)F)CCN1Cc3c(c(Br)cc(O)c3OCC(F)F)C[C@@H]21
inhibition (cAMP level, antagonist, TR-FRET; U2OS expressing human D1R; concentration not given, together with: dopamine 10 nM): 94 ± 1%

OCCCN1CC[C@@H]2C[C@H]1c1cc(-c3ccc(C(F)(F)F)cc3)ccc12
inhibition (radioligand binding, PDSP competition binding; 10 µM): < 50%

O=C(NO)c1ccc(CN2CCCCc3ccccc32)c(F)c1
inhibition (radioligand binding, radioligand displacement; 10 µM, mean of replicates): 26.4%

COc1cccc(OC[C@@H]2CN(CCN3CCc4ccccc43)CCO2)c1
inhibition (radioligand binding; concentration not given, together with: [3H]SCH23390): 48.7%

CCCOc1cc2c(cc1O)[C@@H]1Cc3c(Br)cc(O)c(OCC(F)F)c3CN1CC2
inhibition (cAMP level, antagonist, TR-FRET; U2OS expressing human D1R; concentration not given, together with: dopamine 10 nM): 89 ± 1%

CCS(=O)(=O)c1nc(S(=O)(=O)c2ccccc2Cl)c(N2CCN(C)C(=O)[C@H]2C)s1
inhibition (10 µM): 0.87%

CCCOc1c(O)cc(Br)c2c1CN1CCc3cc(OCC(F)F)c(O)cc3[C@@H]1C2
inhibition (cAMP level, antagonist, TR-FRET; U2OS expressing human D1R; concentration not given, together with: dopamine 10 nM): 96 ± 1%

O=C(CN1CCO[C@H](COc2ccccc2)C1)N1CCc2ccccc21
inhibition (radioligand binding; concentration not given, together with: [3H]SCH23390): 21.3%

COc1cc(Cl)c(C(=O)N[C@@H](CN[C@H]2CC[C@@H](N)CC2)Cc2ccc(C#N)cc2)cc1-c1ccc(CN[C@H](C)c2ccc(C)cc2)o1
inhibition (agonist response, antagonist; human cells; 10 µM, D1 antagonist): -13%

CN(C(=O)n1cnc(-c2ccc[n+]([O-])c2)c1)C1CCCCC1
inhibition (10 µM): 21.3%

Clc1cccc(OC[C@H]2CN(CCN3CCc4ccccc43)CCO2)c1
inhibition (radioligand binding; concentration not given, together with: [3H]SCH23390): 31%

Repeated from above:
COc1cc(Cl)c(C(=O)N[C@@H](CN[C@H]2CC[C@@H](N)CC2)Cc2ccc(C#N)cc2)cc1-c1ccc(CN[C@H](C)c2ccc(C)cc2)o1
inhibition (agonist response, antagonist; human cells; 10 µM, D1 antagonist): -13%
